Measured values from different studies.
Protocols differ between the studies behind these lines. ± gives the spread as reported.
Method: steady-state kinetics
B1: HARS1 Y454S (Homo sapiens, UniProt P12081); chain MAERAALEELVKLQGERVRGLKQQKASAELIEEEVAKLLKLKAQLGPDESKQKFVLKTPKGTRDYSPRQMAVREKVFDVIIRCFKRHGAEVIDTPVFELKETLMGKYGEDSKLIYDLKDQGGELLSLRYDLTVPFARYLAMNKLTNIKRYHIAKVYRRDNPAMTRGRYREFYQCDFDIAGNFDPMIPDAECLKIMCEILSSLQIGDFLVKVNDRRILDGMFAICGVSDSKFRTICSSVDKLDKVSWEEVKNEMVGEKGLAPEVADRIGDYVQQHGGVSLVEQLLQDPKLSQNKQALEGLGDLKLLFEYLTLFGIDDKISFDLSLARGLDYYTGVIYEAVLLQTPAQAGEEPLGVGSVAAGGRYDGLVGMFDPKGRKVPCVGLSIGVERIFSIVEQRLEALEEKIRTTETQVLVASAQKKLLEERLKLVSELWDAGIKAELLYKKNPKLLNQLQSCEEAGIPLVAIIGEQELKDGVIKLRSVTSREEVDVRREDLVEEIKRRTGQPLCIC
B2: YeiR (Escherichia coli, UniProt P33030); chain MTRTNLITGFLGSGKTTSILHLLAHKDPNEKWAVLVNEFGEVGIDGALLADSGALLKEIPGGCMCCVNGLPMQVGLNTLLRQGKPDRLLIEPTGLGHPKQILDLLTAPVYEPWIDLRATLCILDPRLLLDEKSASNENFRDQLAAADIIVANKSDRTTPESEQALQRWWQQNGGDRQLIHSEHGKVDGHLLDLPRRNLAELPASAAHSHQHVVKKGLAALSLPEHQRWRRSLNSGQGYQACGWIFDADTVFDTIGILEWARLAPVERVKGVLRIPEGLVRINRQGDDLHIETQNVAPPDSRIELISSSEADWNALQSALLKLRLATTA
B3: carbamoyl phosphate synthetase large subunit A23F (Escherichia coli, UniProt P00968); chain PKRTDIKSILILGAGPIVIGQFCEFDYSGAQACKALREEGYRVILVNSNPATIMTDPEMADATYIEPIHWEVVRKIIEKERPDAVLPTMGGQTALNCALELERQGVLEEFGVTMIGATADAIDKAEDRRRFDVAMKKIGLETARSGIAHTMEEALAVAADVGFPCIIRPSFTMGGSGGGIAYNREEFEEICARGLDLSPTKELLIDESLIGWKEYEMEVVRDKNDNCIIVCSIENFDAMGIHTGDSITVAPAQTLTDKEYQIMRNASMAVLREIGVETGGSNVQFAVNPKNGRLIVIEMNPRVSRSSALASKATGFPIAKVAAKLAVGYTLDELMNDITGGRTPASFEPSIDYVVTKIPRFNFEKFAGANDRLTTQMKSVGEVMAIGRTQQESLQKALRGLEVGATGFDPKVSLDDPEALTKIRRELKDAGADRIWYIADAFRAGLSVDGVFNLTNIDRWFLVQIEELVRLEEKVAEVGITGLNADFLRQLKRKGFADARLAKLAGVREAEIRKLRDQYDLHPVYKRVDTCAAEFATDTAYMYSTYEEECEANPSTDREKIMVLGGGPNRIGQGIEFDYCCVHASLALREDGYETIMVNCNPETVSTDYDTSDRLYFEPVTLEDVLEIVRIEKPKGVIVQYGGQTPLKLARALEAAGVPVIGTSPDAIDRAEDRERFQHAVERLKLKQPANATVTAIEMAVEKAKEIGYPLVVRPSYVLGGRAMEIVYDEADLRRYFQTAVSVSNDAPVLLDHFLDDAVEVDVDAICDGEMVLIGGIMEHIEQAGVHSGDSACSLPAYTLSQEIQDVMRQQVQKLAFELQVRGLMNVQFAVKNNEVYLIEVNPRAARTVPFVSKATGVPLAKVAARVMAGKSLAEQGVTKEVIPPYYSVKEVVLPFNKFPGVDPLLGPEMRSTGEVMGVGRTFAEAFAKAQLGSNSTMKKHGRALLSVREGDKERVVDLAAKLLKQGFELDATHGTAIVLGEAGINPRLVNKVHEGRPHIQDRIKNGEYTYIINTTSGRRAIEDSRVIRRSALQYKVHYDTTLNGGFATAMALNADATEKVISVQEMHAQIK
B4: protein (Trypanosoma brucei, UniProt Q382C3); chain MKRSVSKVWLNEDTPNDPYPLYAPSPLPPKRPGTIRVWVDGCFDMLHFGHANALRQARSMGDELFVGCHTDEEIIRHKGPPSMRQEERYEALRACKWVDAVIEGYPYVTRVEDMKRFEVDFVVHGDDISVDLNGRNSYQAIIDAGMFKAVRRTECISTTDLVGRMLLCVPSELLSDADKKLLDSEVARKRGPHYLTTSRKIAQFSNKLAPPVGATVVYVDGAFDLFHAGHIRFLQKARALGDYLIVGIHDDQLVRESKGEHFPIMSLNERALGVLSCRYVDDVVFGAPRGVTQEMIKILDIKIVACGTSSETRNCKGAFDVYEVPKSLNLFKVVESGSDLSTDMIVERVVKNHVVLLERQFLKHMKDSEAELRKPDVYRNVREV
B5: TcC (Trypanosoma cruzi, UniProt Q4DGA3); chain MPREYEFAEKILFTEEEIRTRIMEVAKRIADDYKGKGLRPYVNPLVLISVLKGSFMFTADLCRALSDFNVPVRMEFICVSSYGEGVTSSGQVRMLLDTRHSIEGHHVLIVEDIVDTALTLNYLYHMYFTRRPASLKTVVLLDKREGRRVPFSADYVVANIPNAFVIGYGLDYDDTYRELRDIVVLRPEVYAEREAARQKKQRAIGSADTDRDAKREFHSKY
B6: Tcur_2987 Y332F (Thermomonospora curvata, UniProt D1A807); chain ACSEERAAGARPSATQTTGTATEPFHGPHQAGIATPPQAHAVFLGLDLRKGTGRKELGRLMRLLTDDARRLTQGRPALADPEPDLAPLPSRLTFTFGFGPGLFKAAGLEKQRPEGLRPLPPFKVDRLEDRWSGGDLLVQICCDDPITLAHALRMTVKDARAFTRVRWVQRGFRRSPGVQSSGATQRNLMGQLDGTVNPVPGTADFDQAVWVQDGPEWLRGGTTLVLRRIRMELEKWDEADPAGKEFAVGRRLTSGAPLTGRHEHDEPDFDAVDSAGFPVIAENAHIRLAHVDSPRLRMLRRPYNFDEGLTADGRSDAGLLFAAYQADIDRQFIPVQRRLDEGGDLLNLWTTPIGSAVFAIPPGCDENGWIGQGLLG
B7: protein (Rheum palmatum, UniProt A0A7L9A2S6); chain MKKTELVFLPAPAPGHLVSTVEFSKRLIARDARLTVTILVISSPFSRGAQTNPSPGIRYVTLPQVDVPQHLMKDSIEHTISVYIASHAPHVRDAVAALQTESTVHVAGLFLDMFCTPMIDVANELGLPSYVFFCSSAGFLGLLLHLPVHSQPRFDETGLDVLIPSFQNPVPTRVLPRFGFNELGYKSFMDHAKRFGETKGIIINTYAELEPYALKSLLDAYDTAPVYAVGPVLDLRSQVHMPCDAAERARIMGWLDKQPDSSVVFLCFGSGGSFSEHQIREISKGLSQSGQRFLWSVRKPPTGGLVKPTEYTETELRSVLGDEFWSLLDEGERGVVCGWAPQVEVLGHKSVGAFVSHCGWNSTLESLWFGKPMVTWPLYAEQQMNAFELVKELGIAVELTLDYRLHSSEVVEAREVERAVRRVMDENNPVRYKVKEMAEVCRATLVEGGSSFVCVDRLISGFLGEIN
B8: TenA_E (Arabidopsis thaliana, UniProt Q9ASY9); chain MEKRGVIDTWIDKHRSIYTAATRHAFVVSIRDGSVDLSSFRTWLGQDYLFVRRFVPFVASVLIRACKDSGESSDMEVVLGGIASLNDEIEWFKREGSKWDVDFSTVVPQRANQEYGRFLEDLMSSEVKYPVIMTAFWAIEAVYQESFAHCLEDGNKTPVELTGACHRWGNDGFKQYCSSVKNIAERCLENASGEVLGEAEDVLVRVLELEVAFWEMSRGGQ
B9: pyc H216N (Rhizobium etli, UniProt Q2K340); chain MPISKILVANRSEIAIRVFRAANELGIKTVAIWAEEDKLALHRFKADESYQVGRGPHLARDLGPIESYLSIDEVIRVAKLSGADAIHPGYGLLSESPEFVDACNKAGIIFIGPKADTMRQLGNKVAARNLAISVGVPVVPATEPLPDDMAEVAKMAAAIGYPVMLKASWGGGGRGMRVIRSEADLAKEVTEAKREAMAAFGKDEVYLEKLVERARNVESQILGDTHGNVVHLFERDCSVQRRNQKVVERAPAPYLSEAQRQELAAYSLKIAGATNYIGAGTVEYLMDADTGKFYFIEVNPRIQVEHTVTEVVTGIDIVKAQIHILDGAAIGTPQSGVPNQEDIRLNGHALQCRVTTEDPEHNFIPDYGRITAYRSASGFGIRLDGGTSYSGAIITRYYDPLLVKVTAWAPNPLEAISRMDRALREFRIRGVATNLTFLEAIIGHPKFRDNSYTTRFIDTTPELFQQVKRQDRATKLLTYLADVTVNGHPEAKDRPKPLENAARPVVPYANGNGVKDGTKQLLDTLGPKKFGEWMRNEKRVLLTDTTMRDGHQSLLATRMRTYDIARIAGTYSHALPNLLSLECWGGATFDVSMRFLTEDPWERLALIREGAPNLLLQMLLRGANGVGYTNYPDNVVKYFVRQAAKGGIDLFRVFDCLNWVENMRVSMDAIAEENKLCEAAICYTGDILNSARPKYDLKYYTNLAVELEKAGAHIIAVKDMAGLLKPAAAKVLFKALREATGLPIHFHTHDTSGIAAATVLAAVEAGVDAVDAAMDALSGNTSQPCLGSIVEALSGSERDPGLDPAWIRRISFYWEAVRNQYAAFESDLKGPASEVYLHEMPGGQFTNLKEQARSLGLETRWHQVAQAYADANQMFGDIVKVTPSSKVVGDMALMMVSQDLTVADVVSPDREVSFPESVVSMLKGDLGQPPSGWPEALQKKALKGEKPYTVRPGSLLKEADLDAERKVIEKKLEREVSDFEFASYLMYPKVFTDFALASDTYGPVSVLPTPAYFYGLADGEELFADIEKGKTLVIVNQAVSATDSQGMVTVFFELNGQPRRIKVPDRAHGATGAAVRRKAEPGNAAHVGAPMPGVISRVFVSSGQAVNAGDVLVSIEAMKMETAIHAEKDGTIAEVLVKAGDQIDAKDLLAVYGG
B10: enzyme A178R/D177A/G159A/M179S/P184R (Levilactobacillus brevis, UniProt Q03Q85); chain MKVTVVGCTHAGTFAIKQILAEHPDAEVTVYERNDVISFLSCGIALYLGGKVADPQGLFYSSPEELQKLGANVQMNHNVLAIDPDQKTVTVEDLTNHAQTTESYDKLVMTSGSWPIVPKIPGIDSDRVKLCKNWAHAQALIEDAKEAKRITVIGAGYIAAELAEAYSTTGHDVTLIARSARVMRKYFDADFTDVIEQDYRDHGVQLALGETVESFTDSATGLTIKTDKNSYETDLAILCIGFRPNTDLLKGKVDMAPNGAIITDDYMRSSNPDIFAAGDSAAVHYNPTHQNAYIPLATNAVRQGILVGKNLVKPTVKYMGTQSSSGLALYDRTIVSTGLTLAAAKQQGLNAEQVIVEDNYRPEFMPSTEPVLMSLVFDPDTHRILGGALMSKYDVSQSANTLSVCIQNENTIDDLAMVDMLFQPNFDRPFNYLNILAQAAQAKVAQSVNA
Chain of UniProt P42982 (whole entry, looked up): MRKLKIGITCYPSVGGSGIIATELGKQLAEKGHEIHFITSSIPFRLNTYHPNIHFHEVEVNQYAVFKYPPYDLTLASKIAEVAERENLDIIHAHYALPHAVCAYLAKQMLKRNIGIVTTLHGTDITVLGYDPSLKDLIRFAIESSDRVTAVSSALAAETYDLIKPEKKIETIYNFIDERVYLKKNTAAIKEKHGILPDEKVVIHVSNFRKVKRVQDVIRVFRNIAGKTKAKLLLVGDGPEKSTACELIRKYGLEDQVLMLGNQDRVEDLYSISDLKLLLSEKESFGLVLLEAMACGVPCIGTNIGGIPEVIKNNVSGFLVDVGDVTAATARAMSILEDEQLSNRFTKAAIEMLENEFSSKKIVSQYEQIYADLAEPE

Molecule | substrate | conditions | kcat [s⁻¹]
alanine aminopeptidase (Neisseria meningitidis, UniProt Q9JYV4) | C[C@H](N)C(=O)Nc1ccc2c(CC(N)=O)cc(=O)oc2c1 | pH 7.5, 37 °C | 28.4 ± 1
B1 (HARS1 Y454S) | N[C@@H](Cc1c[nH]cn1)C(=O)O | pH 7.5, 37 °C, KCl 150 mM, together with: tRNA(His) | 5.9 ± 0.5
B2 (YeiR) | Nc1nc2c(ncn2[C@@H]2O[C@H](COP(=O)(O)OP(=O)(O)OP(=O)(O)O)[C@@H](O)[C@H]2O)c(=O)[nH]1 | pH 7.5, 37 °C, apo, anaerobic | 0.00317 ± 0.0005
enzyme (Thermus thermophilus, UniProt Q5SJ64) | Nc1nc2c([nH]c(=O)n2[C@H]2C[C@H](O)[C@@H](COP(=O)(O)OP(=O)(O)OP(=O)(O)O)O2)c(=O)[nH]1 | pH 7.5, 37 °C | 0.0008 ± 0.0001
B3 | Nc1ncnc2c1ncn2[C@@H]1O[C@H](COP(=O)(O)OP(=O)(O)OP(=O)(O)O)[C@@H](O)[C@H]1O | pH 7.6, KCl 100 mM, together with: glutamine 10 mM, ornithine 10 mM | 1.3 ± 0.07
B4 (protein) | Nc1ccn([C@@H]2O[C@H](COP(=O)(O)OP(=O)(O)OP(=O)(O)O)[C@@H](O)[C@H]2O)c(=O)n1 | pH 7.5, together with: ethanolamine-phosphate 0.1 mM | 1.15
B5 (TcC) | O=P(O)(O)OC[C@H]1O[C@H](OP(=O)(O)OP(=O)(O)O)[C@H](O)[C@@H]1O | pH 8.3, 37 °C, GMP biosynthesis, apparent, together with: Gua 100 µM | 31 ± 1
B6 (Tcur_2987 Y332F) | Nc1c(S(=O)(=O)O)cc(Nc2cccc(S(=O)(=O)CCOS(=O)(=O)O)c2)c2c1C(=O)c1ccccc1C2=O | pH 3, sigmoidal kinetics, together with: H2O2 1 mM | 83 ± 1
B7 (protein) | O=c1c(O)c(-c2ccc(O)cc2)oc2cc(O)cc(O)c12 | pH 7.5, 35 °C, apparent, together with: UDP-glucose | 0.00538 ± 0.00042
BshA (Bacillus subtilis, UniProt P42982) | CC(=O)N[C@H]1[C@@H](OP(=O)(O)OP(=O)(O)OC[C@H]2O[C@@H](n3ccc(=O)[nH]c3=O)[C@H](O)[C@@H]2O)O[C@H](CO)[C@@H](O)[C@@H]1O | pH 7.5, 21 °C, together with: malate 0–25 mM | 2.63 ± 0.07
B8 (TenA_E) | Cc1ncc(CNC=O)c(N)n1 | pH 7.5, 30 °C, formylamino-HMP amidohydrolase activity, together with: 450 mM glycine betaine | 0.00281 ± 0.00023
B9 (pyc H216N) | Nc1ncnc2c1ncn2[C@@H]1O[C@H](COP(=O)(O)OP(=O)(O)OP(=O)(O)O)[C@@H](O)[C@H]1O | pH 7.8, 30 °C, no pyruvate, together with: NaHCO3 20 mM, acetyl CoA 0.25 mM, Mg2+ 5 mM | 0.0117 ± 0.0007
B10 | NC(=O)C1=CN([C@@H]2O[C@H](COP(=O)(O)OP(=O)(O)OC[C@H]3O[C@@H](n4cnc5c(N)ncnc54)[C@H](OP(=O)(O)O)[C@@H]3O)[C@@H](O)[C@H]2O)C=CC1 | pH 7.5, 37 °C, per site | 307 ± 68

Excerpt of the above:
Molecule | substrate | conditions | kcat [s⁻¹]
B2 (YeiR) | Nc1nc2c(ncn2[C@@H]2O[C@H](COP(=O)(O)OP(=O)(O)OP(=O)(O)O)[C@@H](O)[C@H]2O)c(=O)[nH]1 | pH 7.5, 37 °C, apo, anaerobic | 0.00317 ± 0.0005
